Measurements collected from several papers.

Cn1cc(-c2ccc(-c3cncc(Cl)c3N3CCC4(CCNC4=O)CC3)cc2)cn1 — log2 fold change (COLO 205; gene expression, microarray, measured: CABLES1 mRNA; concentration not given, 2 h; relative to: untreated cells): 2.49
CCOC(=O)C1=C(C)NC(C)=C(C(=O)OC)C1c1cccc(Cl)c1Cl (stereo not drawn) — inhibition (Nedd8-cullin1 interaction; neddylation, AlphaScreen; 100 µM): 7.1%
CC1=C(Cc2cn(CCN3CCC(F)(F)CC3)nn2)C(=O)c2ccccc2C1=O — killing (Schistosoma mansoni; adult worms; 10 µM, 72 h): 44.4%
CCCNCC(O)COc1ccccc1C(=O)CCc1ccccc1 (stereo not drawn) — inhibition (Nedd8-cullin1 interaction; neddylation, AlphaScreen; 100 µM): -84.8%
CCn1cc(-c2cc(Cn3ccoc3=N)cc3c2CCN([C@@H](C)c2cc(OC)ccn2)C3=O)c(C(F)(F)F)n1 — EC50 (BICR56; cell growth; 120 h): > 30 µM
CC1=C(Cn2cc(C(C)(C)O)nn2)C(=O)c2ccccc2C1=O — selectivity index (Schistosoma mansoni; NTS; relative to: L6 CC50 over IC50): 6.9
OC(CCN1CCCCC1)(c1ccccc1)C1CC2C=CC1C2 (stereo not drawn) — change in EEG Beta3-power Pz-O1 (resting-state EEG; healthy elderly humans; oral, 4 mg, eyes open, LS mean; relative to: baseline): 1.4%
CC1=C(Cc2cn(CC#N)nn2)C(=O)c2ccccc2C1=O — killing (Schistosoma mansoni; adult worms; 10 µM, 48 h): 43.5%
CC(C)NCC(O)c1ccc(O)c(O)c1 (stereo not drawn) — sarcomere length (ventricular cardiomyocytes, C57BL/6 mouse; dose not given, 0.64 s): 1.72 µm
Cc1ccccc1N1C(=O)c2cc(S(N)(=O)=O)c(Cl)cc2NC1C (stereo not drawn) — inhibition (Nedd8-cullin1 interaction; neddylation, AlphaScreen; 100 µM): 16.5%
CC1=C(Cc2cn(Cc3ccccc3)nn2)C(=O)c2ccccc2C1=O — killing (Schistosoma mansoni; adult worms; 10 µM, 72 h): 56.9%
Cc1nc(C)c(C)nc1C.Cl — inhibition (Nedd8-cullin1 interaction; neddylation, AlphaScreen; 100 µM): -70.2%
CCn1cc(-c2cc(Cn3ccnc3)cc3c2CCN([C@H](c2cc(OC)ccn2)C2CC2)C3=O)c(C(F)(F)F)n1 — EC50 (BXPC-3; cell growth, inhibitor; 120 h): 3.23 µM
CC1=NN(c2ccccc2)C(=O)C1 — inhibition (Nedd8-cullin1 interaction; neddylation, AlphaScreen; 100 µM): -7.6%
COc1cnc2cccc(N3CCc4c(cc(Cn5ccnc5C)cc4-c4cn(C)nc4C(F)(F)F)C3=O)c2c1 — EC50 (NCI-H2126; cell growth, inhibitor; 120 h): 9.79 µM

Some of these lines once more:
Cn1cc(-c2ccc(-c3cncc(Cl)c3N3CCC4(CCNC4=O)CC3)cc2)cn1 — log2 fold change (COLO 205; gene expression, microarray, measured: CABLES1 mRNA; concentration not given, 2 h; relative to: untreated cells): 2.49
